# Experimental data from different studies.
# Each numbered part is a random draw from the data of one study; scales do not carry over between parts.
# Chain of UniProt P49137 (whole entry, looked up): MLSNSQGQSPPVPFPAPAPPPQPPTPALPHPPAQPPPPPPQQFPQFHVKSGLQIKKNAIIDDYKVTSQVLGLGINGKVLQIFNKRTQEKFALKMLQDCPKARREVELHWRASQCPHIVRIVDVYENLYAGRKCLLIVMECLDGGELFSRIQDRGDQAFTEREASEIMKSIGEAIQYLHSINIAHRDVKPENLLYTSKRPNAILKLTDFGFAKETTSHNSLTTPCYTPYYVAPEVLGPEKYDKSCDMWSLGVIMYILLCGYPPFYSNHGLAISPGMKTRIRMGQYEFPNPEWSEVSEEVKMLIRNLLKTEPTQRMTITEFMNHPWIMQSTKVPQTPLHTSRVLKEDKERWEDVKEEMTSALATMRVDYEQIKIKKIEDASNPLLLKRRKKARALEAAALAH
# Chain of UniProt Q13153 (whole entry, looked up): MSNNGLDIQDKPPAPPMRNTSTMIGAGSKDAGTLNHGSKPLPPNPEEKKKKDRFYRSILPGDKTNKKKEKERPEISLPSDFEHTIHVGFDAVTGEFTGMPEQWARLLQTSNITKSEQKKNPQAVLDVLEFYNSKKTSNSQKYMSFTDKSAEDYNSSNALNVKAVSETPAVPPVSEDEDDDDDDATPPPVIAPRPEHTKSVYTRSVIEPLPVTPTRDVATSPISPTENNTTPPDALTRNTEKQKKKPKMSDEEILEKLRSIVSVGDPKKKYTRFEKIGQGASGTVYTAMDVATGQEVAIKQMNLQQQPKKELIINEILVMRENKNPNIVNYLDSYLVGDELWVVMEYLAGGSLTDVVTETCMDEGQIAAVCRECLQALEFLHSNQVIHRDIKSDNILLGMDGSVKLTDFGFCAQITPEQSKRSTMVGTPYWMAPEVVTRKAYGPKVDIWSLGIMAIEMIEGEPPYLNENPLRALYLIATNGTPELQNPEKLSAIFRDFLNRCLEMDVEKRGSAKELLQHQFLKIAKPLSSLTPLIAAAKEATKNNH
# Chain of UniProt O94921 (whole entry, looked up): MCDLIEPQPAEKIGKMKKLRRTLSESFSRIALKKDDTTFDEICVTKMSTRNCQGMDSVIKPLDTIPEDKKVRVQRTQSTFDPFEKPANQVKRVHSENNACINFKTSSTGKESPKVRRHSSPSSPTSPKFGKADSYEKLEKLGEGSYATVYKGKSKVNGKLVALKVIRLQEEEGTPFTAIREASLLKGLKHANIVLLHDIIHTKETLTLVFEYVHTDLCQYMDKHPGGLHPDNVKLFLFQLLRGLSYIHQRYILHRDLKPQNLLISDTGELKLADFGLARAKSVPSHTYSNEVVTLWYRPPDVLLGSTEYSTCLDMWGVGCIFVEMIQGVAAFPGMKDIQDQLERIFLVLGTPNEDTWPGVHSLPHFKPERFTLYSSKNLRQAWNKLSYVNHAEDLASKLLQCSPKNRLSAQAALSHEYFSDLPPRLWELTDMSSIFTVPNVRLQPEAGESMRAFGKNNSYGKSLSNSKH
# Chain of UniProt P49674 (whole entry, looked up): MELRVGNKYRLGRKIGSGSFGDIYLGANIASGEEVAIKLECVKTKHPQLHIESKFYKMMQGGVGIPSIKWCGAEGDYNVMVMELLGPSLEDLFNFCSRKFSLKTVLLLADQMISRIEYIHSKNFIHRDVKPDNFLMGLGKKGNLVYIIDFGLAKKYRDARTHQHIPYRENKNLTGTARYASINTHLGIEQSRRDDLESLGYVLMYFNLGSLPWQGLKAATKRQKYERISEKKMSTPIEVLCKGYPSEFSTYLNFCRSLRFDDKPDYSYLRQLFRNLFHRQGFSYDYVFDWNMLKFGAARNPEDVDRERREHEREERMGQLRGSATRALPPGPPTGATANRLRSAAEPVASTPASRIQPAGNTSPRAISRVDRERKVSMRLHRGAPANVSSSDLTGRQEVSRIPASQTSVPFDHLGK
# Chain of UniProt Q96RR4 (whole entry, looked up): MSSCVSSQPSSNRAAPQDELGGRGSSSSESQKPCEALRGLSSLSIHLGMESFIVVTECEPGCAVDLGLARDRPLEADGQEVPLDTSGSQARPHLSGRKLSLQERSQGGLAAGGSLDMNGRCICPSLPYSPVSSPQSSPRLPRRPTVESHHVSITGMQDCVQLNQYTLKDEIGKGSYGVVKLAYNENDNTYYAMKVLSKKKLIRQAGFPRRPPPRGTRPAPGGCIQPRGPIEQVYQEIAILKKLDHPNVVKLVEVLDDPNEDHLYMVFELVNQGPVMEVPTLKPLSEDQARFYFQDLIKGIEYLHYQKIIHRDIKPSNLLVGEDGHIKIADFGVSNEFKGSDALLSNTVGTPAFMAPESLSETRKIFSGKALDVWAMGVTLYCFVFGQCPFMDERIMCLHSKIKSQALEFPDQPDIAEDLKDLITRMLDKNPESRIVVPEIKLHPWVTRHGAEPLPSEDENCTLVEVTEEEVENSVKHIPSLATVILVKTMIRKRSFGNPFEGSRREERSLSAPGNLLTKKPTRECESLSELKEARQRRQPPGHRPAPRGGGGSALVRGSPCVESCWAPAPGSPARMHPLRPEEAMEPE
# Chain of UniProt O43293 (whole entry, looked up): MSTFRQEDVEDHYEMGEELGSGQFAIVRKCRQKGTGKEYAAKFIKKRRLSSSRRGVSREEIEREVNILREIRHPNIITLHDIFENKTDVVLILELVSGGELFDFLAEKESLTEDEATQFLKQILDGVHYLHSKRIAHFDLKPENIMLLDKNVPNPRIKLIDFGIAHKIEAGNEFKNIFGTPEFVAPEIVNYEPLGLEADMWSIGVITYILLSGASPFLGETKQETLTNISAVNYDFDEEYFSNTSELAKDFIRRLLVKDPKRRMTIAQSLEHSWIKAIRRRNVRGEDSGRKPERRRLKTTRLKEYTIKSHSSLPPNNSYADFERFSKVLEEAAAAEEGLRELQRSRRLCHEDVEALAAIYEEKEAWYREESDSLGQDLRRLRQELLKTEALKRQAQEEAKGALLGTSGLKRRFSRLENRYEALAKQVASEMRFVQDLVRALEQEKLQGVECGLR
# Chain of UniProt O75116 (whole entry, looked up): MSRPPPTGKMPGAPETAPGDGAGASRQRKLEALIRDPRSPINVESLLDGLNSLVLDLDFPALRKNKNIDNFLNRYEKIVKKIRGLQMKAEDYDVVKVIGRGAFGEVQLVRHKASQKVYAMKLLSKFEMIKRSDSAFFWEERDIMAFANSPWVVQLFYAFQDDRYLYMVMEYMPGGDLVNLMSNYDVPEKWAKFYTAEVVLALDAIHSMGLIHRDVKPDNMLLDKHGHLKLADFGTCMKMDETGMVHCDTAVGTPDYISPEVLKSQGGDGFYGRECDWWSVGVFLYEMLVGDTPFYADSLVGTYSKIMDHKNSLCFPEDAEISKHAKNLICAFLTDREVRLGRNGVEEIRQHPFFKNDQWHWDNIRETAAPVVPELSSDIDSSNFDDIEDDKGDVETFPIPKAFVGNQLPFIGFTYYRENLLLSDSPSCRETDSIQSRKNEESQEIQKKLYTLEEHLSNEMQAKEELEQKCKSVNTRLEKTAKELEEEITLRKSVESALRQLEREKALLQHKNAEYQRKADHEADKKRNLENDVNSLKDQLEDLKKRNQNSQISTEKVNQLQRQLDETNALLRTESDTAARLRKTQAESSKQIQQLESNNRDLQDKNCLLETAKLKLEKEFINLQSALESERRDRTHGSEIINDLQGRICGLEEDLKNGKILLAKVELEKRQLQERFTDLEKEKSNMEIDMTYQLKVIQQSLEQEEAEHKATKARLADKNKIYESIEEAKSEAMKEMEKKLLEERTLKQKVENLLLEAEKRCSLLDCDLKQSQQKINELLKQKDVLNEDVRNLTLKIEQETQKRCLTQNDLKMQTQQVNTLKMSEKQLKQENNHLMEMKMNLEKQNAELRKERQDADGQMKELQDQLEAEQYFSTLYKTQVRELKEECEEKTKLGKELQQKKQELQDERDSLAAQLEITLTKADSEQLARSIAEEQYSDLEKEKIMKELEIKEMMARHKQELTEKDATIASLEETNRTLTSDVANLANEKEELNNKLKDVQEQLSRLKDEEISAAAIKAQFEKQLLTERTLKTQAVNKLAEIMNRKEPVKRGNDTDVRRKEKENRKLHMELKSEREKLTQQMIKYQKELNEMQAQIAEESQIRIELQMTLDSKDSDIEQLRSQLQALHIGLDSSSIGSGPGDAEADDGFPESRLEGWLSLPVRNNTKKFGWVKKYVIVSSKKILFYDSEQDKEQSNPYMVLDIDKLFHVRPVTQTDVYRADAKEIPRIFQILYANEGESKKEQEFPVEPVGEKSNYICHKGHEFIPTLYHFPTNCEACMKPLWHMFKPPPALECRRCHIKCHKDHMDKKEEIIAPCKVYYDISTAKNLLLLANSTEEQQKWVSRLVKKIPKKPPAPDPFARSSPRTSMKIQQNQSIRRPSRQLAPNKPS

# Sample 1 — method: protein-binding microarray; form: double-stranded DNA, one strand shown; sample: in vitro; tested at: not given; reading: higher = stronger binding
# Target: Protein max, full length (MAX, Homo sapiens, UniProt P61244-2, residues 1-151)
# Setting: k-mer, scored over probes, only values ≥0.25
Sequence,E-score
AAAGCACG,0.355
CCGTGCTA,0.265
GCATGGAC,0.354
CCGCCACG,0.344
ATGCATGA,0.326
ACACGTGG,0.497
AATCGTGC,0.251
CCCACCCA,0.288

# Sample 2 — observed: enzyme activity; mode: inhibitor; tested at: 0.5 µM; relative to: control
# Target: Myosin light chain kinase 2, skeletal/cardiac muscle (MYLK2, Homo sapiens, UniProt Q9H1R3)
# Chain of UniProt Q9H1R3 (whole entry, looked up): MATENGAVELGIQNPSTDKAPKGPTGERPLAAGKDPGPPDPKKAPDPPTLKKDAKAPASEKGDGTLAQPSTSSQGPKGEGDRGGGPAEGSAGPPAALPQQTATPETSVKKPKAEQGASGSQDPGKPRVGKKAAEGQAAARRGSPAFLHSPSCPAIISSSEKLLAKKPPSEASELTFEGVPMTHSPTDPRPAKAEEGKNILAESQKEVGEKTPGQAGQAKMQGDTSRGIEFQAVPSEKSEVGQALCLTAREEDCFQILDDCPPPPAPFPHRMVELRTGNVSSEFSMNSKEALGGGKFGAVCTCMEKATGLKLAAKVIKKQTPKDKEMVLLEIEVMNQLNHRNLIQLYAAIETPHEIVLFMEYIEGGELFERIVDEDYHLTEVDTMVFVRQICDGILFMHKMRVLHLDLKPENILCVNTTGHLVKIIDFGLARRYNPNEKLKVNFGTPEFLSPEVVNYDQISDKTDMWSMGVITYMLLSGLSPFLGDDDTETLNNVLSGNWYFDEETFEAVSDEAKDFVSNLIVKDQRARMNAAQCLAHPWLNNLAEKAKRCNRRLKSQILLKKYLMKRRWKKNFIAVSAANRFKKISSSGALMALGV
Compound,remaining activity [%]
N#Cc1c(NC(=O)c2cccc3ccccc23)sc2c1CCCC2,101
Cc1cc2ncc(-c3ccccc3)nc2cc1C,99.7
CCN(CC)CCNC(=O)c1c(C)[nH]c(/C=C2\C(=O)Nc3ccc(Cl)cc32)c1C,10
O=C1C(Cl)=C(N2C(=O)CCC2=O)C(=O)c2ccccc21,98.1
COc1cc2c(cc1OC)-c1[nH]nc(Nc3cccc(F)c3)c1C2,86.4
N#C/C(=C\c1ccc(O)c(O)c1)C(=O)NCc1ccccc1,97.9
O=C(Nc1cccc(Nc2nccc(Nc3cccc(C(F)(F)F)c3)n2)c1)C1CC1,93.6
Cc1nc2cc3nc(-c4cccs4)cnc3cc2n1C,74.5
COc1cc2ncnc(Nc3ccc(O)c(Br)c3)c2cc1OC,87.3
O=c1cc(-c2cccc3c2Sc2ccccc2S3)oc(N2CCOCC2)c1,97.4
Nc1cccc(-c2cc3c(Oc4cccc(O)c4)ncnc3[nH]2)c1,29.9

# Sample 3 — method: RNA Bind-n-Seq; form: RNA; sample: in vitro; tested at: 365 nM; relative to: no-protein control; reading: higher = stronger binding
# Target: RNA binding protein fox-1 homolog 2, RRM domain, GST-SBP tag (RBFOX2, Homo sapiens, UniProt O43251-10, residues 100-194)
# Setting: natural RNA segment, single round, ends assumed
# All sequences stand within: GGGAGUUCUACAGUCCGACGAUC … UGGAAUUCUCGGGUGCCAA
# Residues (chain): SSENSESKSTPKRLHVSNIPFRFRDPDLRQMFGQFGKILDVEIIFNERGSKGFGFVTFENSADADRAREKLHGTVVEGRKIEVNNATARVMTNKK
Sequence,RBNS enrichment (R)
AAACAGGCCUCAUUGCGUAAUUCCUUUGCCCUGAAAAGUGUCACCACCUUUAUAUUUUUACCCCAGCCUUGGAGUUAUCUUUUUCUGCUCUCCAUUCUCCAUGUCCAAAA,0.931
ACUCAGGUGGUGAAAAGAGACAGAAGCGUAUUUCUCUCUGAACAUGCUUGGCUCCCCCCCCCCCCCAGUGUCUGCCUUUCUUUACCUGUGAGGCCUGGUUCUGGAUCUGG,0.268
AAUGUAUUUUCUUCACCUCUGCUACUCAAGUAGCAUUUACUGUGUCUUUGGUUUGUGCUAGGCCCCCGGGUGUGAAGCACAGACCCCUUCCAGGGGUUUACAGUCUAUUU,0.958
GGUUUCCUGUUGUGACAGUAAUAAUGGUUAUAAUAAUAAAAAUGAUAAAAUUGCCAUCAUUCUAUUUUUAUCCAAAAGUAUAAAUUUUGCUUUGGCAUGAAAAGUGGUCC,0.824
CAAGAACUUGUUAACCCUCCCUUAGCCCCUGCCCAUCCAAAGCUGGGCACACGCCUCAGAGCUGCCACAUGCUAGGGACAAACGCUACUGCCACAGGAAAACAGUGGUAG,0.306
UCACGUCACCUGGUGCGUGGAGGUGGAGCCUGCGGCUGGAGUAAGGCUUGCUGUGGGACGCCCUCGUACUUUGCUCUCCUUGCGGGUGGUUGCCGAGCCGAGAGCAUUGG,1.44
UAAAUACUGUACAUGGUGGGGAAUGGAAUGCCUGUUGGAGAAGCUUCUAGCCAAUCACGCUCUGGACCAGCAUGUUGGAAUCCAGUGUGGGGCAAAUGCAGUAAAGAUUU,38.6
GAGCCGGCCCCACUCUCUGGGUCACCUGACUUUGCUCCCGACGACUCGGCUCCCUGCCGAGGCUCAGCUCUUGGGCAAGUUGGGACUUGGACCUGGCCUGAAGACUGAUU,0.22

# Sample 4 — observed: cell-free assay; method: competition with immobilised ligand; tested at: 1 µM
# SMILES: CC1=C(C#N)[C@@H](c2ccc3[nH]nc(C)c3c2)C(C#N)=C(c2ccc(Cl)cc2)N1
target,remaining binding [%]
"Interferon-induced, double-stranded RNA-activated protein kinase (EIF2AK2, Homo sapiens, UniProt P19525)",74.1
"Epidermal growth factor receptor (EGFR, Homo sapiens, UniProt P00533, A750P/del747-749)",80.4
"MAP kinase-activated protein kinase 2 (MAPKAPK2, Homo sapiens, UniProt P49137)",100
"Tyrosine-protein kinase Blk (BLK, Homo sapiens, UniProt P51451)",100
"Casein kinase I isoform epsilon (CSNK1E, Homo sapiens, UniProt P49674)",91.7
"Serine/threonine-protein kinase DCLK2 (DCLK2, Homo sapiens, UniProt Q8N568)",97.9
"Serine/threonine-protein kinase PAK 1 (PAK1, Homo sapiens, UniProt Q13153)",100
"Cyclin-dependent kinase 14 (CDK14, Homo sapiens, UniProt O94921)",94.4
"Calcium/calmodulin-dependent protein kinase kinase 2 (CAMKK2, Homo sapiens, UniProt Q96RR4)",86.5
"Rho-associated protein kinase 2 (ROCK2, Homo sapiens, UniProt O75116)",91.9
"Death-associated protein kinase 3 (DAPK3, Homo sapiens, UniProt O43293)",100
